Experimental data gathered from unrelated publications.
Each line is one published result; not all experiments were run side by side.

`CC(C)N(CCCCOCC(=O)NS(C)(=O)=O)c1cnc(-c2ccccc2)c(-c2ccccc2)n1`: “adverse event incidence” 4.5% (refers to: Presyncope; healthy male human; oral, 200 µg).
For `CO[C@H]1/C=C/O[C@@]2(C)Oc3c(C)c(O)c4c(O)c(c(/C=N/N5CCN(C)CC5)c(O)c4c3C2=O)NC(=O)/C(C)=C\C=C\[C@H](C)[C@H](O)[C@@H](C)[C@@H](O)[C@@H](C)[C@H](OC(C)=O)[C@@H]1C`, “adverse event Irritability” read 8.3% (healthy humans; oral, dose not given).
`C[C@@H](N)c1cc(Cl)ccc1Cn1c(=S)[nH]c(=O)c2[nH]ccc21` — result for “adverse events causing discontinuation”: 0% (human; oral, 2.5 mg single dose).
`CC(=O)N(C)[C@H]1CCN(C(=O)c2cnc3c(c2)C[C@](C)(c2ccc(F)cc2)N3)C1` — result for “adverse event duration”: 2 days (refers to: stomach discomfort; human; oral, 30 mg once daily).
`C[C@@H](c1nc(-c2ccc(C#N)cc2)cs1)[C@](O)(Cn1cncn1)c1cc(F)ccc1F` — result for “adverse event Constipation”: 8.3% (healthy humans; oral, dose not given, with: ketoconazole).
`C=CC(=O)NC1CCN(c2ncc3ncnc(Nc4ccc(Oc5ccc6c(c5)ncn6C)c(C)c4)c3n2)CC1` — result for “adverse events incidence”: 0% (refers to: initial insomnia; human male; oral, dose not given, CTCAE on-treatment AEs).
`O=C(Nc1cnccc1Cl)N1CCN(Cc2ccc3c(c2)OC(F)(F)O3)CC1`: “adverse event incidence” 0% (refers to: Haematoma; human healthy young men; 10 mg, multiple dose).
Under “adverse event incidence”, `CO[C@H]1/C=C/O[C@@]2(C)Oc3c(C)c(O)c4c(O)c(c(/C=N/N5CCN(C)CC5)c(O)c4c3C2=O)NC(=O)/C(C)=C\C=C\[C@H](C)[C@H](O)[C@@H](C)[C@@H](O)[C@@H](C)[C@H](OC(C)=O)[C@@H]1C` is recorded as 6% (refers to: skin subcutaneous tissue disorders; healthy human participants; oral, 600 mg, with: gepotidacin 1500 mg).
`NC(=O)N1c2ccccc2C=Cc2ccccc21` — result for “adverse events incidence”: 13% (refers to: eye disorders (SOC); human male; oral, dose not given, CTCAE on-treatment AEs).
`O=C(COc1ccc(Cl)cc1)NC12CC(c3nnc([C@H]4C[C@@H](OC(F)(F)F)C4)o3)(C1)C2`: “adverse event incidence” 16.7% (refers to: Myalgia; human; oral, 45 mg once daily, 14 days).
Under “adverse events leading to treatment discontinuation”, `CNC(=O)c1ccc(-c2cnc3ncc(Cc4ccc5ncccc5c4)n3n2)cc1F` is recorded as 0 % patients (human, Japanese cohort; oral, 400 mg, organising pneumonia, grade 3/4).

Repeated from above:
`CC(=O)N(C)[C@H]1CCN(C(=O)c2cnc3c(c2)C[C@](C)(c2ccc(F)cc2)N3)C1` — result for “adverse event duration”: 2 days (refers to: stomach discomfort; human; oral, 30 mg once daily).
